Experimental data pooled from the literature.
A part holds a random share of what one study measured. Changes are numbered by the printed parent chain.

Sample 1 — technique: DHFR PCA, deep sequencing; medium: yeast; together with: (+)-ABA 0.0091 µM; reference: wild-type fitted maximum; reading: higher = stronger binding
Target: ABI1, truncated, D143A, DHFR fusion (Arabidopsis thaliana)
Notes: methotrexate growth selection, single substitutions
Starting sequence: PYL1, truncated, DHFR fusion (Arabidopsis thaliana); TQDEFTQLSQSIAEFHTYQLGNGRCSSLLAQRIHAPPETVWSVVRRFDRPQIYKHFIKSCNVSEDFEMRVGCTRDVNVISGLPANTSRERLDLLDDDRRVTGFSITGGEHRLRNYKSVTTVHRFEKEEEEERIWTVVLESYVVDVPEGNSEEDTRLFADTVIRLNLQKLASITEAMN
| Change | relative binding score |
| --- | --- |
| Y115H | 8.16% |
| V100H | -10.9% |
| V70A | -1.57% |
| T119L | -3.58% |
| S87V | 65.8% |
| S140N | -0.454% |
| Q19S | 24.6% |
| W41M | 0.434% |
| Q7W | 23.9% |
| S63L | -1.64% |
| K54N | -1.79% |
| R74Q | -10.8% |
| N149W | 9.92% |
| P146M | 29.5% |
| D48S | 0.388% |
| I33Y | 3.03% |
| E147D | 35.4% |
| R155A | 0.256% |
| L138S | 1.06% |
| K58F | -0.411% |
| M176P | 2.91% |
| V44Y | -8.5% |

Sample 2 — target: FOSB, bZIP domain (human); technique: DHFR protein complementation; medium: yeast; reference: wild-type JUN-FOS pair; reading: higher = stronger binding
Notes: single substitutions, most at no-binding floor
Starting sequence: JUN, bZIP domain (human); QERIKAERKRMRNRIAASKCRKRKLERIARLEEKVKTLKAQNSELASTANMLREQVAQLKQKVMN; partner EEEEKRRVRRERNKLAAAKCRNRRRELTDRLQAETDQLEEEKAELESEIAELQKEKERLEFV
| Change | binding fitness [natural log] |
| --- | --- |
| Q41K | -0.0883 |
| L31E | -0.44 |
| S47W | -0.188 |
| T37Q | 0.104 |
| Q58H | -0.121 |
| K39S | -0.436 |
| A40D | -0.0932 |
| Q41V | -0.122 |
| N42L | -0.0733 |
| S47Y | -0.17 |
| K34D | -0.399 |
| V35L | -0.125 |
| A57G | -0.12 |
| A49C | -0.239 |
| K34V | -0.352 |
| L45K | -0.822 |
| R30K | -0.179 |
| I28T | -0.233 |
| Q55R | -0.142 |
| K34E | -0.294 |
| T48K | -0.00139 |
| A46E | -0.0581 |
| L59G | -1 |
| S43R | 0.0653 |
| S43T | 0.0192 |

Sample 3 — technique: universal PBM; form: double-stranded DNA, one strand shown; medium: in vitro; concentration: 600 nM; reading: higher = stronger binding
Target: Sal-like protein 4, full length isoform A (SALL4, Homo sapiens, UniProt Q9UJQ4, residues 1-1053)
Sequence of UniProt Q9UJQ4 (whole entry, looked up): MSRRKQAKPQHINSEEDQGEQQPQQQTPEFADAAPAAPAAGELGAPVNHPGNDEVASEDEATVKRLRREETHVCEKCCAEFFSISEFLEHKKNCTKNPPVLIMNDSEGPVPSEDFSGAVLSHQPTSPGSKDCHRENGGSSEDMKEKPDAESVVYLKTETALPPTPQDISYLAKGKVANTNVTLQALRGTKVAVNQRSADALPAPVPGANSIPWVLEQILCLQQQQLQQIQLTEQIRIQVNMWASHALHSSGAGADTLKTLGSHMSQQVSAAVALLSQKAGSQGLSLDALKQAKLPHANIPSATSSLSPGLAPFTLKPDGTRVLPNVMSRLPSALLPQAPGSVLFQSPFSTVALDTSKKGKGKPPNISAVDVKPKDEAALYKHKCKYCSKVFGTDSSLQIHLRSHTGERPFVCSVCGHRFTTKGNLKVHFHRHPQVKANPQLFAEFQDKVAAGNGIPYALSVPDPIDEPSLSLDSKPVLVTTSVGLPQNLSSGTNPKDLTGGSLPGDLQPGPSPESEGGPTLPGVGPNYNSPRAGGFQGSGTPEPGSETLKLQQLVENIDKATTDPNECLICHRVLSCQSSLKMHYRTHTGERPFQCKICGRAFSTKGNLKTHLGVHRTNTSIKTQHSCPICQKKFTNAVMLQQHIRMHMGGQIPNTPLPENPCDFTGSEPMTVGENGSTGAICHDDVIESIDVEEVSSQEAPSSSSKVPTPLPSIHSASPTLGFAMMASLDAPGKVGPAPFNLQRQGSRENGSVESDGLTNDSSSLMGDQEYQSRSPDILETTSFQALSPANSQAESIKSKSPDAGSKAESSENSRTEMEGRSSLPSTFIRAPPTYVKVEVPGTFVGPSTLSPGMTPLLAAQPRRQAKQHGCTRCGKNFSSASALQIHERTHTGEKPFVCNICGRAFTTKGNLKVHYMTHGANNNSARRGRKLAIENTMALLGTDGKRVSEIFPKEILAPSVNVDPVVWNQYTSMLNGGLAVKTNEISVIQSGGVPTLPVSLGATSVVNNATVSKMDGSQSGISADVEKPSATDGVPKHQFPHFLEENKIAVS
Notes: 8-mer, flanks averaged, mean of replicates
| Strand | E-score |
| --- | --- |
| TAACCGAA | 0.0644 |
| GAACGTGA | 0.00872 |
| AGCTTACC | -0.0542 |
| CGAAGAGC | -0.092 |
| ACCCGAAT | 0.0281 |
| AACCCAAT | 0.124 |
| ATTTTGGC | 0.2 |
| ATGGCCAC | -0.307 |
| CTGACCTC | -0.334 |
| CTGCTTAA | -0.0274 |
| TCAGCAAA | 0.172 |
| CTCAGGCC | -0.277 |
| CGCGCCAC | -0.22 |
| GCACAATA | 0.15 |
| ATAATTAA | 0.401 |
| AGCATAGG | -0.172 |
| CGTTGATA | 0.213 |
| AGCAACGA | 0.0114 |
| AAATGTCG | -0.0154 |
| GCGTAACC | -0.0745 |
| ACTACGCG | -0.122 |

Sample 4 — target: CCND2, cyclin fold, Cln2 fusion (human); technique: yeast growth competition, sequencing; medium: yeast; notes: weak parent motif; reference: not given; reading: higher = stronger binding
Starting sequence: ORC1 docking peptide (human); PRARKRLELGNLG
| Change | normalised enrichment score |
| --- | --- |
| N11G | 0.198 |
| L12F | 0.00756 |
| K5W | -0.121 |
| N11H | 0.0707 |
| R6E | -0.179 |
| P1L | -0.0361 |
| L12E | 0.26 |
| R2V | 0.339 |
| A3H | 0.33 |
| K5V | -0.112 |
| R6G | 0.474 |
| L9G | 0.0899 |
| R4M | 0.204 |
| P1F | -0.462 |
| N11Q | -0.346 |
| R2Q | 0.00544 |
| G10N | -0.19 |
| R4W | 0.201 |
| G13F | -0.241 |
| G10T | 0.202 |
| A3P | 0.0485 |
| P1K | 0.435 |
| L9A | 0.623 |
| K5G | 0.16 |
| L12S | 0.149 |

Sample 5 — technique: protein-binding microarray; form: double-stranded DNA, one strand shown; medium: in vitro; concentration: 250 nM; notes: 60-bp whole probe; together with: salmon DNA 0.4 mg/ml; reference: random background probes; reading: higher = stronger binding; all sequences stand within: GCCTAGCAC … GTCTTGATTCGCTTGACGCTGCTG
Target: Interferon regulatory factor 7, full length, phosphomimetic (IRF7, Homo sapiens, UniProt Q92985, residues 1-503, S101K/S471D/S472D/S475D/S476D/S477D/S483D/S484D/S487D)
Sequence of UniProt Q92985 (whole entry, unmodified, looked up): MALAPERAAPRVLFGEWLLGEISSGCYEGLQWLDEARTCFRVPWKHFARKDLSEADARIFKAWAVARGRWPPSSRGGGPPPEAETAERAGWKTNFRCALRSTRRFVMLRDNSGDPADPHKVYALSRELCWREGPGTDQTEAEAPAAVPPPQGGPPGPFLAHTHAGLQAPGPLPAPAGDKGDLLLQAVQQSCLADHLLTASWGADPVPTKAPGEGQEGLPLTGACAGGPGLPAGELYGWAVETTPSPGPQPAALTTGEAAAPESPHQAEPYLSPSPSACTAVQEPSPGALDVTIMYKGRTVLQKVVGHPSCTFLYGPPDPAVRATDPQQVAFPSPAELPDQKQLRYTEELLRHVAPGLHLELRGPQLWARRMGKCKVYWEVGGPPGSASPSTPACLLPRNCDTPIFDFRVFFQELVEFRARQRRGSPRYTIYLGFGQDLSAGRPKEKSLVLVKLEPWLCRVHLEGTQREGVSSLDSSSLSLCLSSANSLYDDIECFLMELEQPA
| Strand | log fluorescence [z-score] |
| --- | --- |
| GACGGTTACCTTTCCCTGACGTGCTAG | 0.675 |
| GACGGATTGGGGACTGGGGACGTGCTA | -0.239 |
| TCCAATTACCTTTTCACTTTGTGCTAG | 1.22 |
| GGCGGTATCGGTATCGGGACGTGCTAG | 1.06 |
| GACGGACTGCTTTTCCTGAAGTGCTAG | 0.122 |
| TTAGATATCAGTTTCGATTCGTGCTAG | 12.4 |
| GACGGTATCGGGACTGGGCACGTGCTA | -0.405 |
| AGGAAGATCATTCTCACTGCGTGCTAG | -0.222 |
| TTAAATTTCGGGACTGGATTAGTGCTA | 0.215 |
| TTAGGTCTCGGCATCGGTTAGTGCTAG | 0.618 |
| GACGGTTTCGGGATCGGGACGTGCTAG | 7.39 |
| GACGAACTGAGACAGGAGACGTGCTAG | 0.0123 |
| TACAAATCCAGCCCTACAGAGTGCTAG | 0.0925 |
| GACGGTCTCCTTTTCCTCACGTGCTAG | 1.49 |
| CACTATTTAAGACCTATGCACGTGCTA | 0.626 |
| TACGGTCTCCTACTGCTGACGTGCTAG | 0.0505 |
| TTAGGTTTCGGCTTTCGGTTAGTGCTA | 8.61 |
| TTAGGACTGTTTTTCCTTTAGTGCTAG | 2.01 |
| TTAGGTCTCAGTTTCGATTAGTGCTAG | 8.89 |
| TCACAATTCTTTTTATGACTGTGCTAG | 0.972 |
| TCAAGTTTTACTTTCTAACTGTGCTAG | 1.22 |
| TTAGGTCTAGGTATCGGTTAGTGCTAG | 1.09 |
| TTACAACTGAGACTGGATTAGTGCTAG | -0.155 |
| TTAGGTTTCTTTTCCCTTTAGTGCTAG | 5.14 |
| GACGGTCTCCTTATCCTAACGTGCTAG | 0.42 |

Sample 6 — technique: RNA Bind-n-Seq; form: RNA; medium: in vitro; concentration: not given; notes: RNA with constant flanks, ends assumed; reference: input RNA pool; reading: higher = stronger binding
Target: RING finger protein unkempt homolog, zinc fingers 1-6, GST-SBP tag (UNK, Homo sapiens, UniProt Q9C0B0, residues 30-357)
Construct (chain): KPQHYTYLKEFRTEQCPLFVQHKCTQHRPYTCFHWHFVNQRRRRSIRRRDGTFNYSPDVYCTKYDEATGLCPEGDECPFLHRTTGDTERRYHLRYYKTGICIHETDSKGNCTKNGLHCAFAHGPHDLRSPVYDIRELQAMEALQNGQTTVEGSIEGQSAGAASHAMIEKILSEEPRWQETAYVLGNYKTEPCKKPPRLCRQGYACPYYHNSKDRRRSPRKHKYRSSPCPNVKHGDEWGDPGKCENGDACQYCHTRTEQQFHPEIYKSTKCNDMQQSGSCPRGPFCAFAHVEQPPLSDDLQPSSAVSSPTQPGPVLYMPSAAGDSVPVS
| Strand | bound/input enrichment [ratio] |
| --- | --- |
| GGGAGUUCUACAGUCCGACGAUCAAUGAGUCUUUGGCCUCAGAGCCUCUCAAAGUGUCCACUUCAAGGGGGGAUCAUCCUCAUCCGCACACAGAUUUUUAAAAAUCAAUUCUCUUGCCAUGCCUCCUAUGUGUUCACAUCUCUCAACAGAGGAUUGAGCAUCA | 0.31 |
| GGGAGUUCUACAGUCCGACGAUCUAAAUAUACAAUACAUCAUACAUACUUUACAAGCAAGUUAAAUGGAGAUAAAGUUGAAAUCACCGAAGAUGCAAAUGACCUUUCAAAAUCAACACAAUGUGUUCUGAAACUUUCGUGACUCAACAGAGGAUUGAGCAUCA | 0.114 |
| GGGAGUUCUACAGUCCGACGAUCUGCACUCUUUCAGCCUCAGCAGCACCCAGCACGUGACCAACAUGAUACUUUCUUCCUGCGAGGUUGGCCGCCCGGGAGCCUGGCCAAUGUGGUAGCAGAAGUCUCAAGUCUGGAUAAAGCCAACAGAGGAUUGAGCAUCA | 0.156 |
| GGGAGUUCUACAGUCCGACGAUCAUGGUUGUGAAAGGUGUUUGGGGUCUAAAACAUGAUUUUUCCUGGCACAUAUUUCAAAGCACCGACUUUGUUACCUGCUGCUUCUUGUCUAAUUUACAGGGAUAUUUAAUUUUGUAAGGUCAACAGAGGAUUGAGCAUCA | 0.284 |
| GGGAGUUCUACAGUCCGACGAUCAGAAAAAUACAUCUUUCUGAAUUAAUGCUGGAGAAAUGCCCUUUUCCUGCUGGCUCGGAUUCCGCACAAAAGUGGCAUUUGAUUAAACAGCAUACCGCCCCUGUGAGCCCACACUCAACACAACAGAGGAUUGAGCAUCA | 0.0731 |
| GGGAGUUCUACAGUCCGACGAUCGUUUCAGCCGCAGCUGAAUUUGAGAAUGCUGAAUCUGAGGCUGAUUUCAGUAUACAUUUCAACCGAUUCAACCCCGAUGGGGAAGAGGAAGAUGUUACAGUACAAGAAUGACUUUCUCUUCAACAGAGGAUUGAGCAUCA | 0.115 |
| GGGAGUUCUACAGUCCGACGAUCAGGGAUGGCCCCCAAUCCCACCUCUGUUUAUUCUGUAAACUGCAACCUAUAAAUAACCUUCCGCAUUCCUAUUGUAACAAAAUUAAUUUUUAUGAAAUAAAUUAUAUUUCCUAGUCUAAUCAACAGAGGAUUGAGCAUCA | 32.4 |
| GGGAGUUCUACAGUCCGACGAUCUCUGACAUUUCUACUCUUGGACACCUGGUAAUAACCACUCAGGGAGGAUAUGUAAAAAUACCCGAUCUUUCAAACUUUGAAAUUUUGGCCAAAGUGGAGCCUCCCAAAAAGGAGGGCACUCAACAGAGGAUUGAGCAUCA | 0.27 |
| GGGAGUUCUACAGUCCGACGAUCUGUGGAGCCAGGAAGUGUAACAUAGUCUGCACCCAGCCCCGAAGAAUCUCGGCGGUGAGCUCCGCCACCAGGGUGUGCGAGGAGCUGGGCUGUGAGAGUGGCCCUGGAGGAAGGAAUUCUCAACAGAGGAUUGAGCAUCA | 0.106 |
| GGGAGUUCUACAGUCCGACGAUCGAGAUGCAUCCAGUGAUGUGAGGGGGACCUCUGGGGACUGUCAUUCUCAGUAUCAUGCCGGAAUUUAAAAAGCCAAAAUACUAAUUCUUUCUUUGUAGUGUGUAAGGGAGUGUUUUUAAACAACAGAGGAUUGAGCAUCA | 0.5 |
| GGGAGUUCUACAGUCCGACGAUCCCCCUUCAAGAGAUUCUCGUUUUUCAAAGAUGUGUAUAUCCUUUUAUCACUCACAAGUGGCCGCAUGUCAGAUGCUUCCCCCACCCCCACUGCUUUAUGUAAUAUGUCAUGGGCAUUUCGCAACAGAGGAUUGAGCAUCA | 0.518 |

Some of these lines once more (sample 1):
| Change | relative binding score |
| --- | --- |
| Q19S | 24.6% |
| W41M | 0.434% |
| Q7W | 23.9% |
| S63L | -1.64% |
| K54N | -1.79% |
| R74Q | -10.8% |
| N149W | 9.92% |
| P146M | 29.5% |
| D48S | 0.388% |
| I33Y | 3.03% |
| E147D | 35.4% |
| R155A | 0.256% |
| L138S | 1.06% |
